{"data": "Experimental data collected from several papers", "note": "Numbered parts are unrelated; each lists some results of a single study. Values joined by “and” are separate records of one study, mostly repeats; a detail may differ. Numbers after ± are the reported error.", "chain of UniProt Q5S007 (whole entry, looked up)": "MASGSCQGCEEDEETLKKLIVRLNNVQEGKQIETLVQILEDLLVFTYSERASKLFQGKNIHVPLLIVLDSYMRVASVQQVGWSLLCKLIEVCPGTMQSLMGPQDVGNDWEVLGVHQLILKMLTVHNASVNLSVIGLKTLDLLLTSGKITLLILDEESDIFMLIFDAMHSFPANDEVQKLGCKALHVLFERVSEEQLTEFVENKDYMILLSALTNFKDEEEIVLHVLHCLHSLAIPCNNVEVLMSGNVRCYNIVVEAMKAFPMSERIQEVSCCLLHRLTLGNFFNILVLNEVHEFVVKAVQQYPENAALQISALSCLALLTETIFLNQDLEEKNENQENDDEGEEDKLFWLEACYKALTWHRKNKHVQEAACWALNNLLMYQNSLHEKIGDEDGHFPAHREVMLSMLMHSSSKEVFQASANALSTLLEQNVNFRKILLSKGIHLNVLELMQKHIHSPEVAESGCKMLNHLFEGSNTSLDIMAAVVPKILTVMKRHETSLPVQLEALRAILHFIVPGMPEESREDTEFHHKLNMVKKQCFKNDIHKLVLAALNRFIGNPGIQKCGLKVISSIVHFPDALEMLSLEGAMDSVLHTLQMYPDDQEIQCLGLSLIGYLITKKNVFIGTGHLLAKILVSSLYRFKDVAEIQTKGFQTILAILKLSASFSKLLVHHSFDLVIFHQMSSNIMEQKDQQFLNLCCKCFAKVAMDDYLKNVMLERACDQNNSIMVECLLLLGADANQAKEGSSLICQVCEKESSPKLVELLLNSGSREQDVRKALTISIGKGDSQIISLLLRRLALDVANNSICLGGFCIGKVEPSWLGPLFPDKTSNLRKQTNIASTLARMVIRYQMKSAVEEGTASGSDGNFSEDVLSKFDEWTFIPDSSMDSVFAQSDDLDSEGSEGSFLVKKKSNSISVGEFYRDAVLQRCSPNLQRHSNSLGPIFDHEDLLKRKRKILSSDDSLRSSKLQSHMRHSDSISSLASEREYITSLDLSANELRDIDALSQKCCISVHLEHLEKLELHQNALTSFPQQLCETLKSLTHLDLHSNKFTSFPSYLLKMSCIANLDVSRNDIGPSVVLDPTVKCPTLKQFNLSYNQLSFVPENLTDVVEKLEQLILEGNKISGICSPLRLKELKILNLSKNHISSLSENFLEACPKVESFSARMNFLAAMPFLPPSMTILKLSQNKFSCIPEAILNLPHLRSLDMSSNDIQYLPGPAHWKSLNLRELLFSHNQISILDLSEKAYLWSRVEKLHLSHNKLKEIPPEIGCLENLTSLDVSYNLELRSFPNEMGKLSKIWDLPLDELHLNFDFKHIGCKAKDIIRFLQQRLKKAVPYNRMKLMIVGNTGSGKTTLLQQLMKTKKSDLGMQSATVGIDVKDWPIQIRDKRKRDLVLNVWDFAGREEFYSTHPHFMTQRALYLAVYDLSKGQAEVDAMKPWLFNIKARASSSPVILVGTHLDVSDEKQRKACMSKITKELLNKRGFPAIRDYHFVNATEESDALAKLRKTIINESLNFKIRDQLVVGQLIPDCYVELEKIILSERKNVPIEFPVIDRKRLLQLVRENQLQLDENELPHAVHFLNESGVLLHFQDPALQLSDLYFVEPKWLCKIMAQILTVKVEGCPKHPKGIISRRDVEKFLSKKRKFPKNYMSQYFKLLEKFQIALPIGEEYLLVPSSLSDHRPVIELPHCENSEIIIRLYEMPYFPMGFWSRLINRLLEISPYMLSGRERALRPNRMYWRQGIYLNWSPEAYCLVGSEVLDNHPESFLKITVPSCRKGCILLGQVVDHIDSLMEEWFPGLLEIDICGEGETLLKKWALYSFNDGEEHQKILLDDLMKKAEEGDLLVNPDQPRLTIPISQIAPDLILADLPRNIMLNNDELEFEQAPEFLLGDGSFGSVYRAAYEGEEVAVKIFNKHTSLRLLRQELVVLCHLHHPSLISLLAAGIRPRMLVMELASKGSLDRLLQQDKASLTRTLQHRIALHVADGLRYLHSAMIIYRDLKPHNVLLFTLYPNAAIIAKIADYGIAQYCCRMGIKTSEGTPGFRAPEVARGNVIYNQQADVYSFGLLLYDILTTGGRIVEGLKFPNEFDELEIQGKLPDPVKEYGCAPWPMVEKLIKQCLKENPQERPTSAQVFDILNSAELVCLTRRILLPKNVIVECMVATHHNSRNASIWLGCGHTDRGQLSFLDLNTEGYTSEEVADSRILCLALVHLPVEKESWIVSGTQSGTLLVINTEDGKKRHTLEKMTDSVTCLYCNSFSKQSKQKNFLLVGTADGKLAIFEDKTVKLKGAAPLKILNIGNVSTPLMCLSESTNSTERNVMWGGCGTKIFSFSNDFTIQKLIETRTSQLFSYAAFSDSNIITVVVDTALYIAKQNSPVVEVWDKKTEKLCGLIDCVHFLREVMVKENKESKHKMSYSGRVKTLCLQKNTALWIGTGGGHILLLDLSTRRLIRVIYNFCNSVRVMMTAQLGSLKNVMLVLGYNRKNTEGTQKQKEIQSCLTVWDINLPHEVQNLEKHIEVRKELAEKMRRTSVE", "chain of UniProt Q9Y243 (whole entry, looked up)": "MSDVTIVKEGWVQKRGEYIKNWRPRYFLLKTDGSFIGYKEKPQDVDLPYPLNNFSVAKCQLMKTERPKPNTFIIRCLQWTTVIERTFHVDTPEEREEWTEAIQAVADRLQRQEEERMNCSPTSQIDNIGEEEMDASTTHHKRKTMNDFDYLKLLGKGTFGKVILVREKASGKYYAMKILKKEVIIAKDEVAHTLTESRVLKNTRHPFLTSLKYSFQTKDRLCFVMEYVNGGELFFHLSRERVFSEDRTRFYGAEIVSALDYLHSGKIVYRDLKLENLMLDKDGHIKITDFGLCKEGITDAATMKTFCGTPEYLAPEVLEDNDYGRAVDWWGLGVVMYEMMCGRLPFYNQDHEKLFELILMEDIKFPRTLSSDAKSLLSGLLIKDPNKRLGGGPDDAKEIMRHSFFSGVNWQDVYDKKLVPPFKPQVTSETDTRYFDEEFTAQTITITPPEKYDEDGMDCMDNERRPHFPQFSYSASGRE", "chain of UniProt Q12851 (whole entry, looked up)": "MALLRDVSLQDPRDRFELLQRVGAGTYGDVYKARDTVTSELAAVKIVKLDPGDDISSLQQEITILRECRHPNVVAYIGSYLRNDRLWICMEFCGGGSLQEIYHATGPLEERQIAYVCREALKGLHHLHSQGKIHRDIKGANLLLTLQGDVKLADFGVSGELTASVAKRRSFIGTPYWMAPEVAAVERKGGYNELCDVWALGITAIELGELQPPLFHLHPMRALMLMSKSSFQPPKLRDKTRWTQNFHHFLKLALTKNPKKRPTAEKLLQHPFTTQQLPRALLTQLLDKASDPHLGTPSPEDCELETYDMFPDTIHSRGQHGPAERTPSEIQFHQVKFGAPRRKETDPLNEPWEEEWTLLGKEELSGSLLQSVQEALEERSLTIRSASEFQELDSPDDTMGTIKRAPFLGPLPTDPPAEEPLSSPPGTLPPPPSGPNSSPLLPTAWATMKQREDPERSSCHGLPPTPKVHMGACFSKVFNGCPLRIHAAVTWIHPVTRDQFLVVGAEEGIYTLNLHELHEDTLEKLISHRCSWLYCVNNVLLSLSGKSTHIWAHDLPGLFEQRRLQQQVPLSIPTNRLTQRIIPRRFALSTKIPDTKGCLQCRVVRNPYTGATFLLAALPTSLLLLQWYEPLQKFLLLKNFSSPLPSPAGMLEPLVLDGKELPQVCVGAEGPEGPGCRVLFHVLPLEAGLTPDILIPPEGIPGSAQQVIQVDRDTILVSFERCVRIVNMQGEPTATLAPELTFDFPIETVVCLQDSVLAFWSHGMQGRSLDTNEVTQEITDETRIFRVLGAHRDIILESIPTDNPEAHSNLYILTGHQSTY", "chain of UniProt O15264 (whole entry, looked up)": "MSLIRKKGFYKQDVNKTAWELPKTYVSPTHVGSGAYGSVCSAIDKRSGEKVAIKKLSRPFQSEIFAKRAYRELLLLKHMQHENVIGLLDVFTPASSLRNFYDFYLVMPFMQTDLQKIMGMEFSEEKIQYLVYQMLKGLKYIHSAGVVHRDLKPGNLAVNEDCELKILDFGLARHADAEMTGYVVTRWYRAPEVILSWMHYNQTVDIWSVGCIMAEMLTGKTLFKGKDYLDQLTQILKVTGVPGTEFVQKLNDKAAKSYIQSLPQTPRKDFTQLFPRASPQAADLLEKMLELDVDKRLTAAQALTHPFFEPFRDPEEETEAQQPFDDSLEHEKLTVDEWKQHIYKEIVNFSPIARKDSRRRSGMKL", "chain of UniProt P50750 (whole entry, looked up)": "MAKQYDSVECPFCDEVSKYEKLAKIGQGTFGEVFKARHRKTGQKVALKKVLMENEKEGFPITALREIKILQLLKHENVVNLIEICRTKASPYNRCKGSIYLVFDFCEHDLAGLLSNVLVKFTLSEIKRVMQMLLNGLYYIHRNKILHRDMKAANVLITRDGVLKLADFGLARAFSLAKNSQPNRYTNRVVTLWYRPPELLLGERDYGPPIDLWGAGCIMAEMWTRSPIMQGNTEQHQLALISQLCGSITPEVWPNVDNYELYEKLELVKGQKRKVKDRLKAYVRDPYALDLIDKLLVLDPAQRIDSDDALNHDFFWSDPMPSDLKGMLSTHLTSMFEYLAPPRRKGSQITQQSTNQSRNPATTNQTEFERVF"}
{"data": "Series 1", "SMILES": "COc1cc(C(=O)N2CCC(N3CCN(C)CC3)CC2)ccc1Nc1ncc2c(n1)N(C)c1ccccc1C(=O)N2C", "effect on": "kinase activity"}
{"target": "PAK4", "conditions": "10 µM", "remaining activity": "108 ± 10%"}
{"target": "CSK", "conditions": "10 µM", "remaining activity": "80 ± 12%"}
{"target": "PHK", "conditions": "10 µM", "remaining activity": "59 ± 2%"}
{"target": "PKCz", "conditions": "1 µM", "remaining activity": "94 ± 6%"}
{"target": "CAMKKb", "conditions": "1 µM", "remaining activity": "89 ± 4%"}
{"target": "PAK2", "conditions": "10 µM", "remaining activity": "110 ± 7%"}
{"target": "MARK3", "conditions": "10 µM", "remaining activity": "105 ± 8%"}
{"target": "MLK1", "conditions": "10 µM", "remaining activity": "96 ± 1%"}
{"target": "MLK3", "conditions": "10 µM", "remaining activity": "84 ± 9%"}
{"target": "NEK6", "conditions": "1 µM", "remaining activity": "90 ± 18%"}
{"data": "Series 2", "target": "Beta-1 adrenergic receptor (ADRB1, Homo sapiens, UniProt P08588)", "action": "agonist", "chain of UniProt P08588 (whole entry, looked up)": "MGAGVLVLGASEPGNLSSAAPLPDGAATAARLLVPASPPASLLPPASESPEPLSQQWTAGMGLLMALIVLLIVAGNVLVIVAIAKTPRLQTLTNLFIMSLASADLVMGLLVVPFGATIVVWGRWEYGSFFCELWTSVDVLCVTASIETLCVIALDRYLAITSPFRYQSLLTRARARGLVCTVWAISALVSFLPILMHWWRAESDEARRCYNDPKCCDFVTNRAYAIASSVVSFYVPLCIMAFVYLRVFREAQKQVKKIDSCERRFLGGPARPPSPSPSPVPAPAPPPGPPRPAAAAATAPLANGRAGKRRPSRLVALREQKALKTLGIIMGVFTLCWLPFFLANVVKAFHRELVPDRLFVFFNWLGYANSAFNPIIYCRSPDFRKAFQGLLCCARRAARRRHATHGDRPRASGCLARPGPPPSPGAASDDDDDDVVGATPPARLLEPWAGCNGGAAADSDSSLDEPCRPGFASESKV"}
{"SMILES": "Nc1ncnc2nc(-c3ccc(N4CCOCC4)nc3)cc(-c3cccc(Br)c3)c12", "EC50": "≥ 100 µM"}
{"SMILES": "Cc1cc(N(C)C)ccc1NC(=O)c1ccc2noc(-c3ccccc3)c2c1", "EC50": "≥ 100 µM"}
{"SMILES": "c1ccc(-n2ncc3c(N4CCNc5ccccc5C4)ncnc32)cc1", "EC50": "≥ 100 µM"}
{"SMILES": "COc1cc(CN2CCC(C)(C#N)CC2)ccc1OCC(O)CN1CCOCC1 (stereo not drawn)", "EC50": "≥ 100 µM"}
{"SMILES": "CCN1CCN(Cc2ccc(Nc3ncc(F)c(-c4cc(F)c5nc(C)n(C(C)C)c5c4)n3)nc2)CC1", "EC50": "≥ 100 µM"}
{"SMILES": "COc1cc(OC)c2ccc(=O)oc2c1", "EC50": "≥ 100 µM"}
{"SMILES": "Cc1cc2nc3ccc(N(C)C)cc3[s+]c2cc1N", "EC50": "31.6 µM"}
{"SMILES": "COC[C@@]12CC[C@@H](N3CCOCC3)C[C@H]1CCN(c1nccc(NC(C)C)n1)C2", "EC50": "≥ 100 µM"}
{"SMILES": "Cc1cc(C)n(C2CN(Cc3cccc(OCC(O)CN4CCOCC4)c3)C2)n1 (stereo not drawn)", "EC50": "≥ 100 µM"}
{"SMILES": "OC(COc1ccc(CN2CC(Oc3ccccc3)C2)cc1)CN1CCCCC1 (stereo not drawn)", "EC50": "≥ 100 µM"}
{"SMILES": "COc1cc(CNC2CCCCCCC2)ccc1OCC(O)CN1CCSCC1 (stereo not drawn)", "EC50": "≥ 100 µM"}
{"SMILES": "Cc1noc2c(Nc3ccc(N4CCOCC4)cc3)cc(-c3cccs3)nc12", "EC50": "≥ 100 µM"}
{"SMILES": "Clc1cccc(N2CCN(C3CCNCC3)CC2)c1", "EC50": "≥ 100 µM"}
{"data": "Series 3", "Structure (SMILES)": "Cc1cc2c(C(N)=O)c(N)n(-c3c(C)ccc(O)c3C)c2nc1C"}
{"cell line": "HCC1569", "test": "automated immunoblotting, refers to: CDK1 phospho-Thr14", "conditions": "concentration not given, 8 h after washout", "inhibition": "16.8%"}
{"cell line": "HCC1569", "test": "automated capillary immunoblot, refers to: CDK1 phospho-Thr14", "conditions": "1000 nM", "inhibition": "95.5%"}
{"cell line": "NCI-H1568", "test": "cell proliferation", "conditions": "370.37 nM", "inhibition": "17.2% and 17.4%"}
{"cell line": "NCI-H1648", "test": "cell proliferation", "conditions": "123.5 nM", "inhibition": "-18.4% and -23.5% and -17.4%"}
{"cell line": "HCC1569", "test": "cell proliferation", "conditions": "3333.33 nM", "inhibition": "95.5%"}
{"cell line": "HCC1569", "test": "automated capillary immunoblot, refers to: CDK1 phospho-Thr14", "conditions": "0.05 nM", "inhibition": "5.56%"}
{"cell line": "HCC1569", "test": "automated immunoblotting, refers to: CDK1 phospho-Thr14", "conditions": "concentration not given, 0 h after washout", "inhibition": "75%"}
{"data": "Series 4", "SMILES": "COc1ccc2c(c1)c(C1=C(c3c[nH]c4ccccc34)C(=O)NC1=O)cn2CCCN(C)C", "effect on": "enzyme activity", "action": "inhibitor", "concentration": "0.5 µM", "relative to": "control"}
{"target": "BTK (Homo sapiens, UniProt Q06187)", "remaining activity": "90.2%"}
{"target": "MAP2K6 (Homo sapiens, UniProt P52564)", "remaining activity": "91.6%"}
{"target": "AKT3 (Homo sapiens, UniProt Q9Y243)", "remaining activity": "63.7%"}
{"target": "PRKCD (Homo sapiens, UniProt Q05655)", "remaining activity": "1.67%"}
{"target": "MAPK12 (Homo sapiens, UniProt P53778)", "remaining activity": "84.8%"}
{"target": "WNK2 (Homo sapiens, UniProt Q9Y3S1)", "remaining activity": "96.5%"}
{"target": "MAP4K2 (Homo sapiens, UniProt Q12851)", "remaining activity": "56.3%"}
{"target": "IRAK4 (Homo sapiens, UniProt Q9NWZ3)", "remaining activity": "91.2%"}
{"target": "MAPK13 (Homo sapiens, UniProt O15264)", "remaining activity": "108%"}
{"target": "LRRK2 (Homo sapiens, UniProt Q5S007)", "remaining activity": "87%"}
{"target": "PRKG1 (Homo sapiens, UniProt Q13976)", "remaining activity": "99.5%"}
{"target": "KIT (Homo sapiens, UniProt P10721)", "remaining activity": "88.8%"}
{"target": "PRKCI (Homo sapiens, UniProt P41743)", "remaining activity": "67.6%"}
{"target": "CSNK2A1 (Homo sapiens, UniProt P68400)", "remaining activity": "95.9%"}
{"target": "CSNK1A1 (Homo sapiens, UniProt P48729)", "remaining activity": "62.3%"}
{"target": "PLK2 (Homo sapiens, UniProt Q9NYY3)", "remaining activity": "103%"}
{"target": "Cyclin-dependent kinase 9, with cyclin T1 (CDK9, Homo sapiens, UniProt P50750)", "remaining activity": "69.7%"}
{"target": "MKNK2 (Homo sapiens, UniProt Q9HBH9)", "remaining activity": "81.1%"}
{"target": "MAP3K10 (Homo sapiens, UniProt Q02779)", "remaining activity": "83.4%"}
{"target": "LYN (Homo sapiens, UniProt P07948)", "remaining activity": "112%"}
{"target": "NEK4 (Homo sapiens, UniProt P51957)", "remaining activity": "90.7%"}
{"target": "CHEK1 (Homo sapiens, UniProt O14757)", "remaining activity": "88.8%"}
{"target": "EPHA5 (Homo sapiens, UniProt P54756)", "remaining activity": "87.2%"}
{"data": "Further values, each from its own experiment"}
{"SMILES": "O=C([C@H]1C[C@H](O)CN1c1ccc(Cl)cc1)N1CC2COCC(C1)N2Cc1ccc(Cl)cc1", "target": "5-hydroxytryptamine receptor 2B (HTR2B, Homo sapiens, UniProt P41595)", "test": "binding, radioligand binding", "conditions": "10 µM", "measurement": "inhibition", "result": "14.8%"}
{"note": "Excerpt of the above (series 3):"}
{"cell line": "HCC1569", "test": "automated capillary immunoblot, refers to: CDK1 phospho-Thr14", "conditions": "1000 nM", "inhibition": "95.5%"}
{"cell line": "HCC1569", "test": "cell proliferation", "conditions": "3333.33 nM", "inhibition": "95.5%"}
{"cell line": "HCC1569", "test": "automated immunoblotting, refers to: CDK1 phospho-Thr14", "conditions": "concentration not given, 8 h after washout", "inhibition": "16.8%"}
{"cell line": "HCC1569", "test": "automated immunoblotting, refers to: CDK1 phospho-Thr14", "conditions": "concentration not given, 0 h after washout", "inhibition": "75%"}
{"cell line": "NCI-H1648", "test": "cell proliferation", "conditions": "123.5 nM", "inhibition": "-18.4% and -23.5% and -17.4%"}
{"cell line": "HCC1569", "test": "automated capillary immunoblot, refers to: CDK1 phospho-Thr14", "conditions": "0.05 nM", "inhibition": "5.56%"}
{"cell line": "NCI-H1568", "test": "cell proliferation", "conditions": "370.37 nM", "inhibition": "17.2% and 17.4%"}
